Assay results from different studies.
Compare with care: the assays were run in different laboratories. pIC50: −log10 of the molar value.
Cell line: BEAS-2B
Technique: MTT

`Cc1nc(N(C)c2ccc3c(c2)/C(=C/c2ccccc2)C(=O)N3C)c2ccccc2n1` gave a pIC50 of 5.18 (cell growth or viability).
`Cc1cc(C)[nH]n1` gave a pIC50 of < 3.10 (cell viability; 24 h).
With `COc1ccccc1/C=C1\C(=O)Nc2ccc(Nc3nc(C)nc4ccccc34)cc21` the pIC50 was 5.16 (cell growth or viability).
`CCOC(=O)c1cc(C)n(CO)n1` gave a pIC50 of < 3.10 (cell viability; 24 h).
`CC(=O)[O][Pd][c]1cc(Cl)ccc1N1N=C(C)C(C)(C)C1=O.CC(=O)[O][Pd][c]1cc(Cl)ccc1N1N=C(C)C(C)(C)C1=O` gave a pIC50 of < 4.00 (cell growth or viability; 24 h).
`Nc1ccc[n+]([Pt-2]([Cl])([Cl])[n+]2cccc(N)c2Cl)c1Cl` gave an IC25 of 50.7 µM (cell viability; 48 h).
The pIC50 of `Cc1cc(C)n(CO)n1` is reported as < 3.10 (cell viability; 24 h).
With `COc1ccccc1/C=C1\C(=O)N(C)c2ccc(N(C)c3nc(C)nc4ccccc34)cc21` the pIC50 was 5.01 (cell growth or viability).
With `CC(=O)[O][Pd][c]1cc(C)ccc1N1N=C(C)C(C)(C)C1=O.CC(=O)[O][Pd][c]1cc(C)ccc1N1N=C(C)C(C)(C)C1=O` the pIC50 was < 4.00 (cell growth or viability; 24 h).

For quick reference, copied from above:
`CCOC(=O)c1cc(C)n(CO)n1` gave a pIC50 of < 3.10 (cell viability; 24 h).
